Measurements pooled from the literature.
A part holds a random share of what one study measured.

Set 1
Target: RING finger protein unkempt homolog, zinc fingers 1-6, GST-SBP tag (UNK, Homo sapiens, UniProt Q9C0B0, residues 30-357)
UniProt Q9C0B0, sequence (30-357, looked up): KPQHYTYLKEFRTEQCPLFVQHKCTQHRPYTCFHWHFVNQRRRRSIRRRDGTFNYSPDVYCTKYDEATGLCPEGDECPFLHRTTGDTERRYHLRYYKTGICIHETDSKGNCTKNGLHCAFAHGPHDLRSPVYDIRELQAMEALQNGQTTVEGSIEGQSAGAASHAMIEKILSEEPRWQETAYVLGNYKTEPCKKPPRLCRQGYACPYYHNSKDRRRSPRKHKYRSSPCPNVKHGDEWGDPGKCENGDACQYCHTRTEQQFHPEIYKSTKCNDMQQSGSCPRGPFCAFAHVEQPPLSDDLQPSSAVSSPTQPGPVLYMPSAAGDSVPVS
Method: RNA Bind-n-Seq
Form: RNA
Sample: in vitro
Concentration: not given
Notes: RNA with constant flanks, human and mouse sites, ends assumed
Relative to: input RNA pool
Reading: higher = stronger binding
Strand | bound/input enrichment [ratio]
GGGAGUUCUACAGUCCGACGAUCGUGCUGCAGCAGCUCCCAGCCCCGUGCUAGGAAACAUGCCCCCAGGAGAUGGCAUGCCAGUAGGUCCCGUGCCACCAGGGUUCUUUCAGCCUUUUAUGUCGCCUCGGUACCCUGGCGGCCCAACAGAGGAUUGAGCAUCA | 0.261
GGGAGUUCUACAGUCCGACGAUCGAGGUACUUCUAAAACAUUUCCAAGGUCAAGUUAAUGAGCUGCAGGGUAAACAGGAAUCCCUUGCAGUUUCUCAAGUUCGAGAAGAAAUCCUACAGAAACAGAUUACAAAACUCUUGGAACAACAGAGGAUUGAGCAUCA | 0.179
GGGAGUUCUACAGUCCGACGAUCGUUUUUGGCAAACAUGUCAGCAACGCACCGCUUACUAAACUGCCGAUCAAAUGUUUCCUAGAUUUCAAAGCAGGAGGAUCCCUCUGCCAUAUUCUUGCAGCUGCCUACAAAUUCAAGAGUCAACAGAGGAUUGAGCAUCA | 0.234
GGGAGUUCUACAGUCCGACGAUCACUAAUGCAGUAAUUGCUGGGUUGAUAGUAUUGGAAGGAUUGAAGAUUUUAUCAGGAAAAAUAGACCAGUGCAGAACAAUUUUUUUGAAUAAACAACCAAACCCAAGAAAGAAGCUUCUUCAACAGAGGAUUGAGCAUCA | 0.228
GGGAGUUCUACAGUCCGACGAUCGCCAUCCACCAGCUUUACUCUCUGACACACACACGCACACACACACACAAUUUUAACUUGUUUUUUUGUACAUAAUGUACAUACUGUCAAUUUUUUAUUAAAAGAAAUAUGCUUUGAUGUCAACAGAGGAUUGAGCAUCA | 1.36
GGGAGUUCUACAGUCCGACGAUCGUGCCCCGGCACCUCCGCGGGCGGCGGGCGACUGGCUCUGCCGCAACUGCCGCCUCCUCUCCCGCCGCGGCGGCCGGCGAUAGCCCGGCGCUCAUGACAGAUCCCUGCAUGUCACUGAGUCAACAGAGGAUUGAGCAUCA | 0.649
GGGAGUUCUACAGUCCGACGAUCCCAAAGAAGAUACAGUUUGAAGACAGAAGUGUACUCUCUACAAUGCAAUUUACUGUACAGUUAGAAAGCAAAGUGUUAAAUGGAGAAGAUACUUGUUUUUAUUAAACAUUUUGAGAUUUACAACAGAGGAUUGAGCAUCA | 0.156
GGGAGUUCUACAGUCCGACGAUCAUUAAAAUAAGGAUCCAUGAUGACCUUAAAAGAACUGUAGAUCUUUGUCAAAAGGCUGAAGCAACAGGAGUUUCAUGGAUUACAGUCCAUGGAAGAACUGCUGAAGAAAGACAUCAGCCACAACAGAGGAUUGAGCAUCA | 0.142

Set 2
Target: Centromere-binding protein 1, full length, N-terminal tag (CBF1, Saccharomyces cerevisiae, UniProt P17106, residues 1-351)
UniProt P17106, sequence (whole entry, looked up): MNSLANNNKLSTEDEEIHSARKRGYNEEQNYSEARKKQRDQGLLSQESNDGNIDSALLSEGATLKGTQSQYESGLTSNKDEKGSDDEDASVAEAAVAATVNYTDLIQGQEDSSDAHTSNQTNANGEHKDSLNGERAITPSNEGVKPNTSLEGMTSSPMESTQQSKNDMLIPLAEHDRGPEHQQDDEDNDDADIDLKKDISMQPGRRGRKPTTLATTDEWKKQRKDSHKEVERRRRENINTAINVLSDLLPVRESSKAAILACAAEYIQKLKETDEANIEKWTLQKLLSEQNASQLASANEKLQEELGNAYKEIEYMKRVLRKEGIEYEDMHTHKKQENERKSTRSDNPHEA
Method: protein-binding microarray
Form: double-stranded DNA, one strand shown
Sample: in vitro
Concentration: 0.8 µM
Notes: whole 60-bp probe, no competitor
Reading: higher = stronger binding
Strand | fluorescence intensity [a.u.]
CTATTGTTTATCTTGCACATGGCAAGGCCATCGTTCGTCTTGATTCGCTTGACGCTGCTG | 814
GAAATGATCTTCATACACGTTGTAATGCTACTGTAGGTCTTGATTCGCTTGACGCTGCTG | 566
GAAAAAGTGACATATCACATGTATGGTAGTATCTAGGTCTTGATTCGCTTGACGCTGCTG | 1440
GAAATTGGAAATGCGCAGGTGAGCTGATTGATTTAGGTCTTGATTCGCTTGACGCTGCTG | 593
GAACTAATATAGACGCACGAGTTTCGTTCGCGCTAGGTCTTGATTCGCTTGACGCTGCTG | 643
CCTAACTACTATATCGTCATGACATAGCTTCGTACAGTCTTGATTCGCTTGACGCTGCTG | 546
GAATTTTTTTCCTACCACATGGCATAGATATTTTAGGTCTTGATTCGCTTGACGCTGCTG | 963
GAAATTAAATCGCACCACCAACCAATGACAGTCTAGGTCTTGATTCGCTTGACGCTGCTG | 522

Set 3
Target: Interferon regulatory factor 5, full length, phosphomimetic (IRF5, Homo sapiens, UniProt Q13568-2, residues 1-514, K96S/S451D/S453D/S456D/S462D)
Method: protein-binding microarray
Form: double-stranded DNA, one strand shown
Sample: in vitro
Concentration: 250 nM
Notes: 60-bp whole probe
Together with: salmon DNA 0.4 mg/ml
Relative to: random background probes
Reading: higher = stronger binding
All sequences stand within: GCCTAGCAC … GTCTTGATTCGCTTGACGCTGCTG
Strand | log fluorescence
TCATCTCTGTTTATGTCACTGTGCTAG | 0.844 z-score
GACGAACTGGGCTTTCGAGACGTGCTA | 1.32 z-score
TCTCTTTTCACTTTCTTTACGTGCTAG | 4 z-score
GACGAACTGAGCCTGGAGACGTGCTAG | -0.648 z-score
GGTCATGTCTGTGTCACAGAGTGCTAG | -0.441 z-score

Other studies, line by line
Substance | target | test | test system | conditions | scale | quantity | result
PhoQ, residues 284 288 289 292 302 303 GTAMQF | PhoP, residues 12 14 15 18 19 LWHCS (Escherichia coli, UniProt P23836) | Sort-seq, item: YFP reporter | E. coli | PhoQ-PhoP variant library, together with: 10 µM Mg2+ | relative to: high Mg2+ state, higher = stronger signaling | fold induction | 1.16

For quick reference, copied from above (set 2):
Strand | fluorescence intensity [a.u.]
GAATTTTTTTCCTACCACATGGCATAGATATTTTAGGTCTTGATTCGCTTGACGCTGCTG | 963
